Experimental data of several laboratories.
Protocols differ between the studies behind these lines. ± marks the error that the study gave.
UniProt P10635, sequence (whole entry, looked up): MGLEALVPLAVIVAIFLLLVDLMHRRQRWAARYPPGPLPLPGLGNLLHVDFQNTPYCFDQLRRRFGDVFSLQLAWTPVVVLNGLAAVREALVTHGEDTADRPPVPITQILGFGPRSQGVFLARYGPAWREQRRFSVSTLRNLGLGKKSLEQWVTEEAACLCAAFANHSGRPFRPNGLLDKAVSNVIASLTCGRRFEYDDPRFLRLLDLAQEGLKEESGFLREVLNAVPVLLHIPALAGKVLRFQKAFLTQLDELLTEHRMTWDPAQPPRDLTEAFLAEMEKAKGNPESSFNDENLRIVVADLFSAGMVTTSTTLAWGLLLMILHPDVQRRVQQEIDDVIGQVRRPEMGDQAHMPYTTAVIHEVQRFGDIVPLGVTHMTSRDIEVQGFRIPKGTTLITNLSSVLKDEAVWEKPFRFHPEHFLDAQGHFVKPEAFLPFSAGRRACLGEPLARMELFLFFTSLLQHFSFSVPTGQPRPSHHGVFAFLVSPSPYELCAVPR

SMILES | tested on | test | system | setting | how to read | measurement | result
O=C1C2CC3CC1CC(C(=O)N1CCN(c4ccc([N+](=O)[O-])c5ncccc45)CC1)(C3)C2 | Salmonella typhimurium | Ames test | TA98 | 0.13 µg/well, without S9 |  | mean revertant colonies | 5 colonies/well
N#C[C@@H]1CC(F)(F)CN1C(=O)CNC(=O)c1ccnc2c(NC(=O)[C@H](CCCCNC(=O)CCOCCOCCOCCOCCOCCOCCNC(=O)CN3CCN(CC(=O)[O-])CCN(CC(=O)[O-])CCN(CC(=O)[O-])CC3)NC(=O)CCCc3ccc(I)cc3)cccc12.[177Lu+3] | U-87 MG tumour model |  | host not given, heart | 24 h, tumour-bearing |  | tracer uptake | 1.72 %ID/g
O=C1NC2(CC2)COc2ncc(F)cc2[C@H]2COCCN2c2ccn3ncc1c3n2 | Salmonella typhimurium | Ames test | TA97a | 500 µg/plate, 48 h, with: without S9 |  | revertant colonies | 82 ± 14 revertants/plate
CN1CCCNC(=O)c2cccc(c2)C(=O)NCCCN(C)CCCNc2cccc3c2C(=O)c2cccc(c2C3=O)NCCC1 | HSC-2 | cell growth or viability, CCK-8 |  | 50 nM, 48 h |  | viability | 96%
CNC(=O)C1CCCN(C(=O)C2CC3CCC2N3C(=O)[C@@H]2C[C@@H](O)CN2C(=O)NCc2cccc(Cl)c2F)C1 (mixture of isomers) | Cytochrome P450 2D6 (CYP2D6, Homo sapiens, UniProt P10635) | enzyme activity, inhibitor, time-dependent inhibition |  | 50 µM, preincubated without NADPH | reference: negative control | remaining activity | 98.5%
O=C(Nc1cnccc1-c1ccc([18F])nc1)c1ccnc(NC(=O)C2CC2)c1 |  | PET imaging | FVB/NJ mice, both sexes, liver | intravenous, 120 min |  | median SUV | 6.02
CCN(CC)CC#CCNc1ccnc2cc(Cl)ccc12 | Salmonella typhimurium | mini-Ames test | TA98 | 250.0 µg/well, without S9 |  | mean revertants | 11 revertants/well
CC(C)OCCOCc1ccc(OCC(O)CN(N=O)C(C)C)cc1 (stereo not drawn) | Salmonella typhimurium | Ames test | TA1535 | 50 µg/plate, without metabolic activation | reference: solvent control | revertant fold increase | 1 fold
C=C(NC(=O)c1csc(-c2nc3c(cc2O)-c2nc(cs2)C(=O)NC(C(C)O)C(=O)NC(=C(C)OC)c2nc(cs2)C(=O)NC2c4nc(cs4)C(=O)NC(COC(=O)c4c5c6c(cccc6n4O)COC(=O)C(OC4CC(C)(O)C(N(C)C)C(C)O4)C2OC5)c2nc-3cs2)n1)C(N)=O (stereo not drawn) |  |  | ICR mice, Streptococcus pneumoniae ATCC 49169 infected, immunocompromised, blood | intravenous, 8 mg/kg/day once daily |  | Tmax | 4.8 min

A few entries again:
SMILES | tested on | test | system | setting | how to read | measurement | result
O=C1NC2(CC2)COc2ncc(F)cc2[C@H]2COCCN2c2ccn3ncc1c3n2 | Salmonella typhimurium | Ames test | TA97a | 500 µg/plate, 48 h, with: without S9 |  | revertant colonies | 82 ± 14 revertants/plate
